Experimental data from different studies.
Parts stem from different laboratories: compare values within a part only. Substitutions count along the parent as printed.

Set 1 — technique: competition protein-binding microarray; form: double-stranded DNA, one strand shown; medium: in vitro; concentration: 2 µM; together with: Pho4 competitor, 0.05 µM; reading: higher = stronger binding; constant ends, left off below: … GTCTTGATTCGCTTGACGCTGCTG
Target: Centromere-binding protein 1, full length, His-tagged (CBF1, Saccharomyces cerevisiae, UniProt P17106, residues 1-351)
Sequence of UniProt P17106 (whole entry, looked up): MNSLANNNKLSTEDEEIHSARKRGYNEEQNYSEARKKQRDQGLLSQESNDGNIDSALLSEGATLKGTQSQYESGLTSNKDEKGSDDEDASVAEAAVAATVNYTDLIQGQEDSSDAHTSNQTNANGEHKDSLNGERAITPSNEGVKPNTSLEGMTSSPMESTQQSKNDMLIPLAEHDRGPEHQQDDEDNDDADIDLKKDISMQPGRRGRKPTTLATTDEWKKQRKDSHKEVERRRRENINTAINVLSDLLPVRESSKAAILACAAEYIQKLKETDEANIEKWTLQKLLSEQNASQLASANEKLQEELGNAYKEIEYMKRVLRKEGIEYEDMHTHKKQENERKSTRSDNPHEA
Setting: whole 60-bp probe, lowest competitor level
Strand	fluorescence intensity [a.u.]
GTCTTGTCTCATTGGTGGGTGGGTGTCCCCACTTCA	89.6
CTAACGAAGGTTTGTAAAGTGGGTGACAAGCCAAGT	75.8
CTTCTCTTCTTCACCGGCGTGATGGGCTGCGTAACA	90.4
GCAAGAAGTAACTGGCGTGTGCACAAGAATACTTGT	84.1
CCAGGCACCGAGGTCCATGTGAAAGGAGGCTTTGCG	60.5
GATAACCTCCTTAGCACCGTGATTGTTTAATGTGTC	125
TCTTTACCTTTGTTCCACGTGTCGGTCCGTACAATT	668
GAAAGAGTGGCTTATCATGTGTAATAGGCGAATAAG	125
TTTTTTGAGACTTACCTCGTGTTGGTGTCTCCCTGG	89.1
GAATGACTAAAGTCCCACGTTTTTCCCACTTTTAGT	116
AAAGAGCATTCGAGTCACGTGTATACATTCAAGTGA	7070
CTCTAATCCCACCACCACATGCCACACTCACCCTCA	85.1
TGCGCAACAACTTGCGACGTGGGTGTATGTCTAGAA	73.5
CTTCTGTAAATTTTTCACGTGCTTTGACGCGCCCCG	1040
CGGGGTTAAGTTTTTCACGTGGGTTGCTTGCAGCAG	565
AAATTACTAAGTTGTCACGTCACTTACCCCGTATGA	130
ACAACCCTTCCCTTACGCGTGGTCGCTCCCAGTCGA	58.1
TTCGTCTTCTTCGTCACCGTGACGGGAGCTCTTCGG	129
AAATTACTAAGTTTTCACGTGTATTACCCCGTATGA	724

Set 2 — target: NFE2L1, bZIP domain (human); technique: DHFR protein complementation; medium: yeast; relative to: wild-type JUN-FOS pair; reading: higher = stronger binding
Setting: single substitutions, most at no-binding floor
Starting sequence: JUN, bZIP domain (human); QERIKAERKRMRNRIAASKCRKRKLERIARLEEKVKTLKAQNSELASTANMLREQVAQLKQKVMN; partner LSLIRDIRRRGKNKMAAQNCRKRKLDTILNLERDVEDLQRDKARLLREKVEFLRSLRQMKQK
Change	binding fitness
K39F	-1.55 natural log
V35K	-1.54 natural log
E54V	-1.41 natural log
K39T	-1.13 natural log
V35Q	-1.41 natural log
T48C	-1.51 natural log
V35T	-1.24 natural log
L31P	-1.53 natural log
K34E	-1.44 natural log
T48S	-1.43 natural log
A40G	-1.52 natural log
E32T	-1.26 natural log
Q41C	-1.57 natural log
L31G	-1.44 natural log
E54G	-1.44 natural log
N42A	-1.43 natural log
A49G	-1.45 natural log
E44Q	-1.49 natural log
V56N	-1.62 natural log
L52N	-1.43 natural log
R53V	-1.3 natural log
E54Q	-1.4 natural log
K39W	-1.54 natural log

Set 3 — target: CCNB3, cyclin fold, Cln2 fusion (human); technique: yeast growth competition, sequencing; medium: yeast; setting: weak parent motif; relative to: not given; reading: higher = stronger binding
Starting sequence: ANKRD17 docking peptide (human); PSVRRQLFVTVVK; partner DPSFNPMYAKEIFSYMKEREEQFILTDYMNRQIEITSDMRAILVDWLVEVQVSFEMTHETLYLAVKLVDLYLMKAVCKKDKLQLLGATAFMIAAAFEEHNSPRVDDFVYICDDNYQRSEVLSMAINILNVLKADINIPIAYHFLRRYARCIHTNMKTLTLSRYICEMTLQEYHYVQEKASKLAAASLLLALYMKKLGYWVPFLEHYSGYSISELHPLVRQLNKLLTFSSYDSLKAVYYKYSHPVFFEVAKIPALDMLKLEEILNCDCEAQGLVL
Change	normalised enrichment score
R5A L7A	0.139
S2A	0.598
T10A	1.1
V11A	1.06
R5K F8L	0.824
V3A	0.783
K13A	0.534
F8A	0.363
Q6A	0.268
F8L	0.541

Set 4 — technique: DHFR PCA, deep sequencing; medium: yeast; together with: (+)-ABA 17 µM; relative to: wild-type fitted maximum; reading: higher = stronger binding
Target: ABI1, truncated, D143A, DHFR fusion (Arabidopsis thaliana)
Setting: methotrexate growth selection, single substitutions
Starting sequence: PYL1, truncated, DHFR fusion (Arabidopsis thaliana); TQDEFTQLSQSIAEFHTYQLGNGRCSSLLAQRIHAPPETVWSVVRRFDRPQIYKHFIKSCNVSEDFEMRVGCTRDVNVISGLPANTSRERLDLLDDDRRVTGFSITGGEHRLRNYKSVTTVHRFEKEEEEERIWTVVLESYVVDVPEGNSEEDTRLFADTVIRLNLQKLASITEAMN; partner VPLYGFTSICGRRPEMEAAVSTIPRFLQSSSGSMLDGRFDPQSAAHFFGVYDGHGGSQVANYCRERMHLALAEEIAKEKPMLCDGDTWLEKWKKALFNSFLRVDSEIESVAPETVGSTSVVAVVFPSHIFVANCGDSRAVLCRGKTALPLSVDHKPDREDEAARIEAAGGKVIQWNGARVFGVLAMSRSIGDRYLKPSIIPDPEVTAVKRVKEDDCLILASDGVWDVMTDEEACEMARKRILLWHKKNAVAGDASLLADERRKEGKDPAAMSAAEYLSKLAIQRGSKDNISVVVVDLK
Change	relative binding score [%]
K58Y	59.6
A30F	84.2
C60K	-11.9
L93D	7.64
D3C	82.2
H110T	33.7
S42A	84.9
E139P	-8.98
Y18T	60.6
R99S	20.7
T1M	83.9
F124E	82.3
E152G	70.5
S27I	1.44
I133A	96.9
N61K	90.5
F103E	-8.94
F56R	-5
T120G	5.03
V136Q	21.9
V145H	-4.77
A170S	65.7
S26G	77.3
C25I	72

Set 5 — technique: protein-binding microarray; form: double-stranded DNA, one strand shown; medium: in vitro; concentration: 2540 nM top; setting: 60-bp whole probe; together with: salmon DNA 0.4 mg/ml; relative to: random background probes; reading: higher = stronger binding; constant ends, left off below: GCCTAGCAC … GTCTTGATTCGCTTGACGCTGCTG
Target: Interferon regulatory factor 3, full length, phosphomimetic (IRF3, Homo sapiens, UniProt Q14653, residues 1-427, S386D/S396D/S398D/S402D/T404D/S405D)
Residues (chain): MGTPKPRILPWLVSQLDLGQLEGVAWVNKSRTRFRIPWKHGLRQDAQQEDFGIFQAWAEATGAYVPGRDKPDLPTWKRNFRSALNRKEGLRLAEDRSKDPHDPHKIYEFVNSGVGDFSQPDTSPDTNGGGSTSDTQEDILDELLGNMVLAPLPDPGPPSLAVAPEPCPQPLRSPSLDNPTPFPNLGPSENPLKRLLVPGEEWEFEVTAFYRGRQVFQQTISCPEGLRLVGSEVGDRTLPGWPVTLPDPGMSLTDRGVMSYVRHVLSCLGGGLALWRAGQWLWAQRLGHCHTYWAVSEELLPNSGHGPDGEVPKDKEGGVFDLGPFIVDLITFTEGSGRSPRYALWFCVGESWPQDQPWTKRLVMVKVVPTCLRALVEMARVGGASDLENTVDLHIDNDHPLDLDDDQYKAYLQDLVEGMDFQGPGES
Strand	fitted relative affinity
GACGAACTGGGGTTTCTAGACGTGCTA	-0.429 z-score
CTGCTAGGGCACACAAGTCAGTGCTAG	-0.306 z-score
TCAGGGCTACCTCTCTTACTGTGCTAG	-0.927 z-score
GACGGTCTCGGATTGGGGACGTGCTAG	0.575 z-score
TTAAAACTGGGGTTTCGATTAGTGCTA	1.56 z-score
TTAGGTTTCGGTTTCCGTTAGTGCTAG	11.4 z-score
TTAGGGTTCGACACTGGGTTAGTGCTA	-0.399 z-score
CCCTCCCTAATTCTGATTGGGTGCTAG	1.04 z-score
GAGGGTATCGGACTGGGGACGTGCTAG	0.206 z-score
TTCTAAACCATTTTGGTTTTGTGCTAG	1.69 z-score
TCACTTCCCAATAATCTTACTGTGCTA	1.92 z-score
CACGGTATCGACTTTCGGGACGTGCTA	1.12 z-score
GTAGGTTTCGGACTGGGTTAGTGCTAG	4.13 z-score
GACGGTTCCGGTTTCAGGACGTGCTAG	5.6 z-score
GACGAGTTCAGTATCGAGACGTGCTAG	0.715 z-score
GACGGTATAGGGTTTCGGGACGTGCTA	0.916 z-score
GGCGATTTCAGTATCGAGACGTGCTAG	2.05 z-score
GACGGTATAGGACTGGGGACGTGCTAG	-0.427 z-score
TGGCCTATTTATATGAGATGGTGCTAG	0.174 z-score

A few entries again (set 3):
Change	normalised enrichment score
R5A L7A	0.139
T10A	1.1
F8A	0.363
V3A	0.783
V11A	1.06
F8L	0.541
R5K F8L	0.824
S2A	0.598
Q6A	0.268
K13A	0.534
